Published values of several laboratories.
Every numbered part comes from another study and shows a few of its results, in no order. Positions count from the first letter of the parent shown.

Set 1
Target: Eukaryotic initiation factor 4A-I (EIF4A1, Homo sapiens, UniProt P60842, residues 1-406, full length assumed)
UniProt P60842, sequence (whole entry, looked up): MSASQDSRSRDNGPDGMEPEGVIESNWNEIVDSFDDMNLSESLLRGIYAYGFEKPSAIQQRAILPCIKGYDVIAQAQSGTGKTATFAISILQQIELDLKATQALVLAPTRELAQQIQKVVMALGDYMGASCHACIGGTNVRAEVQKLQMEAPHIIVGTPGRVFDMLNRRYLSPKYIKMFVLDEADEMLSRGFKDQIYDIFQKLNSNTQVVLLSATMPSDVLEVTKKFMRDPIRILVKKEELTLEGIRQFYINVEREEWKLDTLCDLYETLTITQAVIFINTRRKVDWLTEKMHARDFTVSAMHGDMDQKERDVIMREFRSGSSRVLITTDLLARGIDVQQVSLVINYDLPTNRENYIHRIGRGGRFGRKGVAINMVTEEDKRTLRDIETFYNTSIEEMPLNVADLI
Technique: RNA Bind-n-Seq
Molecule type: RNA
Matrix: in vitro
Concentration: 90 pmol
Setting: 4-mer, random 30-nt RNA, single round
Added: 3 µM DMDA-PatA, 2 mM ADP, 2 mM phosphate
Reference: input library
Reading: higher = stronger binding
Measurement: 4-mer enrichment
Sequence = UUGA; result = 1.01 fold
Sequence = UUAG; result = 1.08 fold
Sequence = CGUA; result = 1.02 fold
Sequence = GAUA; result = 0.913 fold
Sequence = UGGG; result = 1.33 fold
Sequence = GGUU; result = 1.03 fold
Sequence = UCUU; result = 0.691 fold
Sequence = AUUA; result = 0.982 fold

Set 2
Target: ATF2, bZIP domain (human)
Technique: DHFR protein complementation
Matrix: yeast
Setting: single substitutions, most at no-binding floor
Reference: wild-type JUN-FOS pair
Reading: higher = stronger binding
Measurement: binding fitness
Parent: JUN, bZIP domain (human); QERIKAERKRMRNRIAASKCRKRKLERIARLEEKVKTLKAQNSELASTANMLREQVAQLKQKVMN; partner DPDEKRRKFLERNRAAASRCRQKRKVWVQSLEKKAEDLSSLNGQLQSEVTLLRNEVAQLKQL
Change = Q55N; result = -1.36 natural log
Change = A46K; result = -1.4 natural log
Change = K34S; result = -1.39 natural log
Change = L45Y; result = -1.49 natural log
Change = A49F; result = -1.28 natural log
Change = R53W; result = -1.52 natural log
Change = T48S; result = -1.33 natural log
Change = L45Q; result = -1.49 natural log

Set 3
Target: PABPC1L2, full length, GST fusion (mouse, UniProt A0ABA7IW68)
Technique: RNAcompete
Molecule type: RNA
Matrix: in vitro
Concentration: 20 nM
Setting: 7-mer, probes averaged, single round
Reference: mean of 7-mers
Reading: higher = stronger binding
Measurement: 7-mer Z-score
Residues (chain): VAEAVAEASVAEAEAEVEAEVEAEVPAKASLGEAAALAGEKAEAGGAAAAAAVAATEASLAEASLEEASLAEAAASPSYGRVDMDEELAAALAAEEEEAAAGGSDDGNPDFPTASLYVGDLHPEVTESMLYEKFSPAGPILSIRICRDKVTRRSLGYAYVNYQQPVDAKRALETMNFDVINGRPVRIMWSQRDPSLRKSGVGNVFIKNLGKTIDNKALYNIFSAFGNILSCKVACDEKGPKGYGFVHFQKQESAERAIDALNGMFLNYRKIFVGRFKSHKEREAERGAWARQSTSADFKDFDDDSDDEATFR
Sequence = AUGAUAU; result = -0.106
Sequence = CCUACUU; result = -0.331
Sequence = GGCUUGC; result = -0.139
Sequence = UCGUCGA; result = -0.465
Sequence = UUUCGGC; result = -0.414
Sequence = AGAUUAC; result = -0.238
Sequence = UGGCGGG; result = 0.274
Sequence = UGCAUAG; result = -0.209

Mixed results
Parent: viral docking peptide; TSVRRALFTGGSD; partner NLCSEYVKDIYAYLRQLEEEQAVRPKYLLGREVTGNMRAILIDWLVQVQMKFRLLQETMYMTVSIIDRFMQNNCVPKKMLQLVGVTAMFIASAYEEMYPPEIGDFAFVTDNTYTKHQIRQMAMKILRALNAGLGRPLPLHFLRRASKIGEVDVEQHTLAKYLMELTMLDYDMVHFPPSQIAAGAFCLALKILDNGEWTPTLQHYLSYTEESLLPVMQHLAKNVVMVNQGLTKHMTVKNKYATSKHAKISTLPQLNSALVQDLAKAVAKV
Change = L7M; target = CCNB1, cyclin fold, Cln2 fusion (human); assay = yeast growth competition, sequencing; system = yeast; setting = strong parent motif; how to read = reference: not given, higher = stronger binding; measurement = normalised enrichment score; result = 0.403

Repeated from above (set 2):
Change = A46K; result = -1.4 natural log
Change = K34S; result = -1.39 natural log
